Assay results collected from several papers.
Lines come from different studies, so protocols differ. Values joined by “and” are separate records of one study, mostly repeats; a detail may differ. ± marks the error that the study gave.
TDP1: Tyrosyl-DNA phosphodiesterase 1 (TDP1, Homo sapiens, UniProt Q9NUW8)
Sequence of UniProt Q9NUW8 (whole entry, looked up): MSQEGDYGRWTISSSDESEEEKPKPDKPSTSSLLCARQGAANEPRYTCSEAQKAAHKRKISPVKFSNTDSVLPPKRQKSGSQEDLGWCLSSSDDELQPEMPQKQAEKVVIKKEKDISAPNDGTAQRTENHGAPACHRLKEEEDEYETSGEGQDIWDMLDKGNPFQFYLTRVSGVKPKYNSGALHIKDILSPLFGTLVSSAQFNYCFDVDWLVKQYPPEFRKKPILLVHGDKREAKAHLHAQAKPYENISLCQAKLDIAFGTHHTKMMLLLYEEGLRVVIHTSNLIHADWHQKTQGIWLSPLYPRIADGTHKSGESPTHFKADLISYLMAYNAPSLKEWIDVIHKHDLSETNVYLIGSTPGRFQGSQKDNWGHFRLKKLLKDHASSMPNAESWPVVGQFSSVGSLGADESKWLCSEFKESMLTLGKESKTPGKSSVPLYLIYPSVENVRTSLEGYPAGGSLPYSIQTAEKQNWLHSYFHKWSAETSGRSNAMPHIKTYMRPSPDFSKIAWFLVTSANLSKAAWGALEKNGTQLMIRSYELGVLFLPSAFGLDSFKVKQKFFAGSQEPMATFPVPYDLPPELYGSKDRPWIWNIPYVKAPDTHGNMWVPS

CCCC[C@H](NC(=O)COCCOCCNC(=O)CN1CCN(CC(=O)O)CCN(CC(=O)O)CC1)C(=O)N[C@H]1CC(=O)NCCCC[C@@H](C(N)=O)NC(=O)[C@H](Cc2c[nH]c3ccccc23)NC(=O)[C@H](CCCNC(=N)N)NC(=O)[C@@H](Cc2ccccc2)NC(=O)[C@H](Cc2c[nH]cn2)NC1=O [fluorine-18 labelled] — tissue uptake (C57 mice B16-F10 melanoma, lung; intravenous, 0.37 MBq, 2 h): 0.28 ± 0.1 %ID/g
CCCC[C@H](NC(=O)CNC(=O)CNC(=O)[C@H](CCCCNC(=O)[C@H](CCN)NC(=O)C(C)c1ccc(CC(C)C)cc1)NC(=O)CN1CCN(CC(=O)O)CCN(CC(=O)O)CCN(CC(=O)O)CC1)C(=O)N[C@H]1CC(=O)NCCCC[C@@H](C(N)=O)NC(=O)[C@H](Cc2c[nH]c3ccccc23)NC(=O)[C@H](CCCNC(=N)N)NC(=O)[C@@H](Cc2ccccc2)NC(=O)[C@H](Cc2c[nH]cn2)NC1=O (stereo partly shown) [lutetium-177 labelled] — tissue uptake (C57 mice, tumour-bearing, muscle; 2 h): 0.33 ± 0.07 %ID/g
Cc1cncc(N2CCC(C=NOCc3ccc(-c4nc5cc(-c6ccccc6)ccn5c4Nc4ccc(C(=O)O)cc4)cc3)CC2)n1 — inhibition (TDP1; enzyme activity, inhibitor; 100 µM): 41.2%
O=C(NCC1OC2CCC=CCCC2O1)c1ccc([18F])nc1 (stereo not shown) — tissue uptake (healthy female BALB/c nude mice, large intestine; intravenous, 7.4 MBq per mouse, 10 min): 3.4 ± 0.3 %ID/g
O=C(O)CCCOc1ccc([18F])cc1-c1cc(-c2ccccc2C(F)(F)F)n(-c2ccccc2)n1 — tissue uptake (mice, small intestine; intravenous, 15 min): 1.68 ± 0.37 %ID/g
CCCC[C@H](NC(=O)CCCCCCCNC(=O)CN1CCN(CC(=O)O)CCN(CC(=O)O)CC1)C(=O)N[C@H]1CC(=O)NCCCC[C@@H](C(N)=O)NC(=O)[C@H](Cc2c[nH]c3ccccc23)NC(=O)[C@H](CCCNC(=N)N)NC(=O)[C@@H](Cc2ccccc2)NC(=O)[C@H](Cc2c[nH]cn2)NC1=O [fluorine-18 labelled] — tissue uptake (C57 mice B16-F10 melanoma, liver; intravenous, 0.37 MBq, 0.5 h): 3.05 ± 0.51 %ID/g
O=C(NCC1OC2CCC=CCCC2O1)c1ccc(COCCOCCOCC[18F])cc1 (stereo not shown) — tissue uptake (healthy female BALB/c nude mice, blood; intravenous, 7.4 MBq per mouse, 60 min): 3.8 ± 0.8 %ID/g
Cc1cc(C)n(CCN(CCN)CCCCCCNC(=O)[C@@H](N)Cc2c[nH]cn2)n1.[99Tc+].[C-]#[O+].[C-]#[O+].[C-]#[O+] — tissue uptake (BALB/c nude mice A549 xenograft, liver; intravenous, 15 min): 21.1 ± 3.4 %ID/g
COc1ccc2c(c1)C(C)(C)C(/C=C/C1=C(Oc3ccc(C(=O)NCCCCOc4cc(CN(Cc5ccccn5)Cc5ccccn5)cc(CN(Cc5ccccn5)Cc5ccccn5)c4)cc3)C(=C/C=C3/N(CCCCS(=O)(=O)[O-])c4ccc(OC)cc4C3(C)C)CCC1)=[N+]2CCCCS(=O)(=O)[O-].O=[N+]([O-])[O-].O=[N+]([O-])[O-].[99Tc+].[C-]#[O+].[C-]#[O+].[C-]#[O+].[Zn+2] — tissue uptake (BALB/c mice, S. aureus myositis, urine and bladder; 12 h post-injection): 0.57 %ID/g and 1.47 %ID/g and 3.02 %ID/g and 1.29 %ID/g
N#C[C@@H]1CCCN1C(=O)CNC(=O)c1ccnc2ccc(OCCCN3CCN(C(=O)CCc4ccc5c(c4)CN4CCN(Cc6cc(CCC(=O)O)ccc6O)CC(=O)[O][Al-]([18F])([O]C(=O)C4)[O]5)CC3)cc12 (stereo partly shown) — tissue uptake (BALB/c nude mice, U-87 MG xenograft, spleen; 1 h): 0.59 ± 0.2 %ID/g
O=C([O-])CN1CCN(CC(=O)[O-])CCN(CC(=O)NC[C@H]2CC[C@H](C(=O)N[C@H](Cc3cnc4ccccc4c3)C(=O)NCCCC[C@H](NC(=O)N[C@@H](CCC(=O)O)C(=O)O)C(=O)O)CC2)CCN(CC(=O)[O-])CC1.[64Cu+2] — tissue uptake (ex vivo gamma counting; 22Rv1 tumour-bearing mice, brain; intravenous, 0.74 MBq, 6 h post-injection): 0.52 %ID/g
CC(C)C[C@H](NC(=O)[C@@H](CCCCNC(=O)[C@@H](Cc1ccccc1)NC(=O)CCCCCCCNC(=O)CN1CCN(CC(=O)O)CCN(CC(=O)O)CCN(CC(=O)O)CC1)NC(=O)[C@H](Cc1ccc(O)cc1)NC(=O)[C@H](CO)NC(=O)[C@H](Cc1c[nH]c2ccccc12)NC(=O)[C@H](Cc1c[nH]cn1)NC(=O)[C@@H]1CCC(=O)N1)C(=O)N[C@@H](CCCNC(=N)N)C(=O)N1CCC[C@H]1C(=O)NCC(N)=O [indium-111 labelled] — tissue uptake (male athymic nude mice, DU-145 prostate cancer xenograft, lung; intravenous, dose not given, 1 h, added: unlabeled blocking peptide 10 µg): 0.72 ± 0.16 %ID/g
COc1ccc(Nc2nc(Nc3ccc(OCCOCC[18F])cc3)ncc2Br)cc1 — tissue uptake (ICR mice, S180 tumour-bearing, bone; intravenous, 370 kBq, 60 min): 4.08 ± 0.53 %ID/g
CCCC[C@H](NC(=O)CNC(=O)CNC(=O)[C@H](CCCCNC(=O)C(C)c1ccc(CC(C)C)cc1)NC(=O)CN1CCN(CC(=O)O)CCN(CC(=O)O)CCN(CC(=O)O)CC1)C(=O)N[C@H]1CC(=O)NCCCC[C@@H](C(N)=O)NC(=O)[C@H](Cc2c[nH]c3ccccc23)NC(=O)[C@H](CCCNC(=N)N)NC(=O)[C@@H](Cc2ccccc2)NC(=O)[C@H](Cc2c[nH]cn2)NC1=O (stereo partly shown) [lutetium-177 labelled] — tissue uptake (C57 mice, tumour-bearing, tumor; 2 h): 13.8 ± 3.37 %ID/g
COc1ccc(C=NOCc2ccc3nc(-c4ccccc4)c(Nc4ccc(C(=O)O)cc4)n3c2)cc1OCC#N — inhibition (TDP1; enzyme activity, inhibitor; 100 µM, unpurified compound): -2.5%
CCCC[C@H](NC(=O)CNC(=O)CNC(=O)[C@H](CCCCNC(=O)[C@H](CC(=O)O)NC(=O)C(C)c1ccc(CC(C)C)cc1)NC(=O)CN1CCN(CC(=O)O)CCN(CC(=O)O)CCN(CC(=O)O)CC1)C(=O)N[C@H]1CC(=O)NCCCC[C@@H](C(N)=O)NC(=O)[C@H](Cc2c[nH]c3ccccc23)NC(=O)[C@H](CCCNC(=N)N)NC(=O)[C@@H](Cc2ccccc2)NC(=O)[C@H](Cc2c[nH]cn2)NC1=O (stereo partly shown) [lutetium-177 labelled] — tissue uptake (C57 mice, tumour-bearing, stomach; 2 h): 0.78 ± 0.26 %ID/g
Cc1cc(C)n(CCN(CCN)CCCCCCNC(=O)[C@@H](N)Cc2c[nH]c3ccccc23)n1.[99Tc+].[C-]#[O+].[C-]#[O+].[C-]#[O+] — tissue uptake (BALB/c nude mice A549 xenograft, blood; intravenous, 15 min): 1.8 ± 0.69 %ID/g
CCCC[C@H](NC(=O)CNC(=O)CNC(=O)[C@H](CCCCNC(=O)[C@H](CC(N)=O)NC(=O)C(C)c1ccc(CC(C)C)cc1)NC(=O)CN1CCN(CC(=O)O)CCN(CC(=O)O)CCN(CC(=O)O)CC1)C(=O)N[C@H]1CC(=O)NCCCC[C@@H](C(N)=O)NC(=O)[C@H](Cc2c[nH]c3ccccc23)NC(=O)[C@H](CCCNC(=N)N)NC(=O)[C@@H](Cc2ccccc2)NC(=O)[C@H](Cc2c[nH]cn2)NC1=O (stereo partly shown) [lutetium-177 labelled] — tissue uptake (C57 mice, tumour-bearing, liver; 2 h): 10.9 ± 0.83 %ID/g
COc1ccc(Nc2nc(Nc3ccc(OCCOCCOCC[18F])cc3)ncc2Br)cc1 — tissue uptake (ICR mice, S180 tumour-bearing, lung; intravenous, 370 kBq, 15 min): 6.44 ± 0.73 %ID/g

For quick reference, copied from above:
CCCC[C@H](NC(=O)COCCOCCNC(=O)CN1CCN(CC(=O)O)CCN(CC(=O)O)CC1)C(=O)N[C@H]1CC(=O)NCCCC[C@@H](C(N)=O)NC(=O)[C@H](Cc2c[nH]c3ccccc23)NC(=O)[C@H](CCCNC(=N)N)NC(=O)[C@@H](Cc2ccccc2)NC(=O)[C@H](Cc2c[nH]cn2)NC1=O [fluorine-18 labelled] — tissue uptake (C57 mice B16-F10 melanoma, lung; intravenous, 0.37 MBq, 2 h): 0.28 ± 0.1 %ID/g
COc1ccc(Nc2nc(Nc3ccc(OCCOCC[18F])cc3)ncc2Br)cc1 — tissue uptake (ICR mice, S180 tumour-bearing, bone; intravenous, 370 kBq, 60 min): 4.08 ± 0.53 %ID/g
